{"data": "Earlier results as cited in several papers", "note": "Compare with care: the assays were run in different laboratories. Numbers after ± are the reported error.", "sequence of UniProt Q8TF76 (whole entry, looked up)": "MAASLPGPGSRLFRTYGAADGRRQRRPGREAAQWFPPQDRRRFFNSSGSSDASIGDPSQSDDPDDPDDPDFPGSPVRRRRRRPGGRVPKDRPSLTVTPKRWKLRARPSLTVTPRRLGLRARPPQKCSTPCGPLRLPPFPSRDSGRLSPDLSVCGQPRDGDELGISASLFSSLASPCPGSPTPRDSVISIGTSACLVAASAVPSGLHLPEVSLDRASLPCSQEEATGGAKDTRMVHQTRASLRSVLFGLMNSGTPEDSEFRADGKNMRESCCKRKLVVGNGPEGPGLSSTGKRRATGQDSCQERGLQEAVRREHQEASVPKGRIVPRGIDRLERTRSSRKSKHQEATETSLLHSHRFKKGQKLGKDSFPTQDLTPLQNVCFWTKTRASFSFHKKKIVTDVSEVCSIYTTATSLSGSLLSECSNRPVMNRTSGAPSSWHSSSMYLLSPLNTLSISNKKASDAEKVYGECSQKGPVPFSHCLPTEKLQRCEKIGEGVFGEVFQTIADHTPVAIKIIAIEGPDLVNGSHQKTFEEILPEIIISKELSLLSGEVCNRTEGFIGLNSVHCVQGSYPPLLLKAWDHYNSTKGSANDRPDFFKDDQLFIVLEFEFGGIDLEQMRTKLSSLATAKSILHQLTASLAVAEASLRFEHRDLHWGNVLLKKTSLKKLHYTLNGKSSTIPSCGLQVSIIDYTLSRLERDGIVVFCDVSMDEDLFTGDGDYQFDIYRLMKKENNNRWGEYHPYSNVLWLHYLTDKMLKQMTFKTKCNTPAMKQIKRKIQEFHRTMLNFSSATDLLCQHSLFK"}
{"Structure (SMILES)": "COc1cc(O)c(CC=C(C)C)c(O)c1C(=O)/C=C/c1ccc(O)cc1", "system": "human", "setting": "180 mg", "quantity": "half-life", "value": "18 h"}
{"Structure (SMILES)": "COc1cc2c(Oc3ccc4[nH]c(C)cc4c3F)ccnc2cc1OCC1(N)CC1", "system": "human", "setting": "12 mg single dose", "quantity": "half-life", "value": "116 ± 47 h"}
{"Structure (SMILES)": "Cc1ccc([C@@H]2O[C@H](CO)[C@@H](O)[C@H](O)[C@H]2O)cc1Cc1ccc(-c2ccc(F)cc2)s1", "system": "human, preserved kidney function", "setting": "300 mg, steady state, mean", "quantity": "half-life", "value": "13.5 h"}
{"Structure (SMILES)": "CCN(CC)Cc1ccc2cc(COC(=O)Nc3ccc(C(=O)NO)cc3)ccc2c1", "system": "healthy male humans", "setting": "oral, 100 mg", "quantity": "half-life", "value": "6 h"}
{"Structure (SMILES)": "CC#CC(=O)N[C@H]1CCCN(c2c(F)cc(C(N)=O)c3[nH]c(C)c(C)c23)C1", "system": "human", "setting": "10 mg once daily", "quantity": "half-life", "value": "1.63 h"}
{"Structure (SMILES)": "Cn1ncnc1[C@H]1c2n[nH]c(=O)c3cc(F)cc(c23)N[C@@H]1c1ccc(F)cc1", "system": "human adults", "setting": "1000 µg/day", "quantity": "half-life", "value": "52.9 ± 3.4 h"}
{"Structure (SMILES)": "CN(C)c1ccc2nc3ccc(=[N+](C)C)cc-3sc2c1", "system": "human", "quantity": "half-life", "value": "~10 h"}
{"Structure (SMILES)": "C[C@H](Cn1cnc2c(N)ncnc21)OCP(=O)(O)O", "system": "human", "quantity": "half-life", "value": "17 h"}
{"Structure (SMILES)": "C=CC(=O)N1CCC([C@@H]2CCNc3c(C(N)=O)c(-c4ccc(Oc5ccccc5)cc4)nn32)CC1", "system": "human", "setting": "320 mg once daily", "quantity": "half-life", "value": "3.97 h"}
{"Structure (SMILES)": "CC(=O)N[C@@H]1CCC[C@H](C(=O)Nc2cc(-c3cnn4c3CC(C)(C)C4)c(Cl)cn2)C1", "system": "human", "quantity": "half-life", "value": "1.6 h"}
{"Structure (SMILES)": "COc1ccc2c(c1)c(CC(=O)O)c(C)n2C(=O)c1ccc(Cl)cc1", "system": "human", "quantity": "half-life", "value": "4.5 h"}
{"Structure (SMILES)": "C=CC(=O)N1CCC(CNc2ncnc(N)c2-c2ccc(Oc3ccccc3)cc2)CC1", "system": "human", "setting": "75 mg once daily", "quantity": "half-life", "value": "2.09 h"}
{"Structure (SMILES)": "CNC(=O)c1ccc(N2C(=S)N(c3ccc(C#N)c(C(F)(F)F)c3)C(=O)C2(C)C)cc1F", "system": "human", "quantity": "half-life", "value": "~139 h"}
{"Structure (SMILES)": "CNC(C)C1CCC(N)C(OC2C(N)CC(N)C(OC3OCC(C)(O)C(NC)C3O)C2O)O1 (stereo not shown)", "system": "human", "quantity": "half-life", "value": "1.92 h"}
{"Structure (SMILES)": "Cc1c(C(=O)O)ccc2c3n(nc12)[C@@H]1[C@H](C3)N(CC2CC2)[C@@]2(C(=O)Nc3cc(Cl)ccc32)[C@H]1c1cccc(Cl)c1F", "system": "human", "quantity": "half-life", "value": "30 to 60 h"}
{"Structure (SMILES)": "O=C(CCCCCCC(=O)Nc1ccccc1)NO", "system": "human", "setting": "oral, dose not given", "quantity": "half-life", "value": "1.5 to 2.1 h"}
{"Structure (SMILES)": "CC(C(=O)O)c1ccc(-c2ccccc2)c(F)c1 (stereo not shown)", "system": "human", "quantity": "half-life", "value": "3 to 4 h"}
{"Structure (SMILES)": "CC1(C)S[C@@H]2[C@H](NC(=O)[C@H](N)c3ccccc3)C(=O)N2[C@H]1C(=O)O", "tested on": "Acinetobacter baumannii", "system": "clinical isolate RKI-No_230/15", "quantity": "MIC", "value": "> 16 µg/mL"}
{"Structure (SMILES)": "CC#CC(=O)N1CCC[C@H]1c1nc(-c2ccc(C(=O)Nc3ccccn3)cc2)c2c(N)nccn12", "system": "human", "setting": "100 mg twice daily", "quantity": "half-life", "value": "1.13 h"}
{"Structure (SMILES)": "Nc1cc(C(F)(F)F)c(-c2nc(N3CCOCC3)nc(N3CCOCC3)n2)cn1", "tested on": "HASPIN (Homo sapiens, UniProt Q8TF76)", "assay": "enzyme activity", "setting": "10 µM", "how to read": "relative to: untreated", "quantity": "remaining activity", "value": "70%"}
{"Structure (SMILES)": "CCN1CCN(Cc2ccc(Nc3ncc(F)c(-c4cc(F)c5nc(C)n(C(C)C)c5c4)n3)nc2)CC1", "system": "human", "setting": "mean across doses", "quantity": "half-life", "value": "17 to 38 h"}
{"Structure (SMILES)": "CNC(C)C1CCC(N)C(OC2C(N)CC(N)C(OC3OCC(C)(O)C(NC)C3O)C2O)O1 (stereo not shown)", "tested on": "Acinetobacter baumannii", "system": "clinical isolate RKI-No_13/16", "quantity": "MIC", "value": "> 8 µg/mL"}
{"note": "A few entries again:"}
{"Structure (SMILES)": "COc1cc2c(Oc3ccc4[nH]c(C)cc4c3F)ccnc2cc1OCC1(N)CC1", "system": "human", "setting": "12 mg single dose", "quantity": "half-life", "value": "116 ± 47 h"}
